Assay results collected from several papers.
Every numbered part comes from another study and shows a few of its results, in no order. Substitutions count along the parent as printed.

Set 1 — technique: protein-binding microarray; molecule type: double-stranded DNA, one strand shown; sample: in vitro; tested at: 250 nM; notes: 60-bp whole probe; added: salmon DNA 0.4 mg/ml; reference: random background probes; reading: higher = stronger binding; all sequences stand within: GCCTAGCAC … GTCTTGATTCGCTTGACGCTGCTG
Target: Interferon regulatory factor 5, full length, phosphomimetic (IRF5, Homo sapiens, UniProt Q13568-2, residues 1-514, K96S/S451D/S453D/S456D/S462D)
| Oligonucleotide | log fluorescence [z-score] |
| --- | --- |
| GACGGGTTCGGACTGGGGACGTGCTAG | -0.506 |
| TGTCCTTTCACTTTAACTTAGTGCTAG | 5.4 |
| TCAGCATACCATATCAGACTGTGCTAG | 0.0587 |
| TCATACTTCTCTTTTGGACTGTGCTAG | 0.722 |
| GACGGTATAGGTTTCGGGACGTGCTAG | 2.69 |
| GGAAGTCCCATGTTGCAGACTGTGCTA | -0.651 |
| CAACATCTGCAAGATCCACAAGTGCTA | 0.0281 |
| TATTTTTTTCTAATTGAAATGTGCTAG | 1.43 |

Set 2 — target: CCNF, cyclin fold, Cln2 fusion (human); technique: yeast growth competition, sequencing; sample: yeast; notes: strong parent motif; reference: not given; reading: higher = stronger binding; starting sequence: viral docking peptide; KGVKRKLFAEDSS
| Substitution | normalised enrichment score |
| --- | --- |
| S12Q | 7.28 |
| G2S | 8.19 |
| D11I | 8.27 |
| L7V | 0.891 |
| A9F | 8.74 |
| G2L | 7.69 |
| R5C | 2.16 |
| G2Y | 8.12 |
| D11H | 7.89 |
| G2M | 8.09 |
| F8Y | 6.33 |
| D11A | 7.73 |
| E10Y | 7.29 |
| G2A | 7.54 |
| A9S | 7.73 |

Set 3 — technique: RNA Bind-n-Seq; molecule type: RNA; sample: in vitro; tested at: not given; reference: input RNA pool; reading: higher = stronger binding
Target: RING finger protein unkempt homolog, zinc fingers 1-6, GST-SBP tag (UNK, Homo sapiens, UniProt Q9C0B0, residues 30-357)
Notes: RNA with constant flanks, human and mouse sites, ends assumed
All sequences stand within: GGGAGUUCUACAGUCCGACGAUC … CAACAGAGGAUUGAGCAUCA
Construct (chain): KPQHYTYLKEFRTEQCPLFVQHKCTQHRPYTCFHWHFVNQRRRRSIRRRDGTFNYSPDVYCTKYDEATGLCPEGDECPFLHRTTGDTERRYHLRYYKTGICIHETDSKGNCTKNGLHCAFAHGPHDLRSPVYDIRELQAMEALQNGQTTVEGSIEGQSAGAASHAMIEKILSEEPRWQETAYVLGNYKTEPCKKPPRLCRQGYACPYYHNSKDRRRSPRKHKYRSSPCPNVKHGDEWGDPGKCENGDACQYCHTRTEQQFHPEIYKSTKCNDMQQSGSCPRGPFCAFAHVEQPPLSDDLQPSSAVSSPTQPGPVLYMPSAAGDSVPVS
| Oligonucleotide | bound/input enrichment [ratio] |
| --- | --- |
| UUAGGACUUAGCUGCUUUGUUAAUAGAGGUCUUAACUUGAAUAUUUAGAAAUAAUCAGAAAAAUUAUUUUUUGGUAUUGAAGAUGUAUUUUGGAAAUGGGUUUUAAAGUACCUACUUAAG | 1.41 |
| UGCAUGCUGCUGUUUGUGUUUGGCUUUGUUGGCGGGGCGGUGGUCAUUAAUUCUGCGAUCUUAGUAUCUCUCUCUGUUUUGCUGCUUGUGCACUUUUCUAUUUCUACCGGGGUGCCAGCG | 0.738 |
| UGUUUUGCACGGAUGGUUGGAAAUAGUGGAAAAGUCAUUGGAAUUGAUCACAUUAAAGAACUAGUAGAUGACUCAAUAACUAAUGUCAAAAAGGAUGACCCAAUGCUCCUGUCCUCGGGG | 0.183 |
| UAUUUUGAUACUCUGUAUGUGUACAUAUAAUUUAACUGUAAUAUGUAUGUUGUAAUAUAUUAUAGAUACUGUACUUGUCAUAUCAAGGGUUCUUGUUGUUAUUAAUUAAGCUUUAAAUGU | 0.382 |
| UUGCAUGGAGACAUUCCACAGAAGCAAAGGGAAAUCACCCUGAAAGGUUUUAGAAAUGGUAGUUUUGGAGUUUUGGUGGCAACCAAUGUUGCUGCACGUGGGUUAGACAUCCCUGAGGUU | 1.26 |
| UAUUUAGUUUUCUGUAGGGUUUUUUGGUUUUGGGGGGGGGGUUGUUUGUUUGUUUGUUGUUUUAGUUUUUGGAAGGAGGGAUGGACUCCACCAGUGUCAGUGUCGGUGUGUCUUAUGUCU | 18.9 |
| AGGCCUGCUGGGAACAGGACUUCUAACAGCAAGUAUGUCUGGAAGGCUGUGGUGCAAGGCCAUUUUUGCUGGCUACAAGCGAGGUCUCCGGAACCAAAGAGAGCACACGGCUCUUCUUAA | 0.0813 |
| UCUAAAAUUGUUCGUGUUAGAUCAGAUUUGCUUGAUGAGUUAAUUAAAUCAGGGCAGUUAUUAGGAGUGAAAUUUAUAGCAGAGCUUGGUGUCCCAUUGUCACAGGUUAAAAGCAUCUCA | 1 |

Set 4 — technique: RNAcompete; molecule type: RNA; sample: in vitro; tested at: 20 nM; notes: 7-mer, probes averaged, single round; reference: mean of 7-mers; reading: higher = stronger binding
Target: PABPC1L2, full length, GST fusion (mouse, UniProt A0ABA7IW68)
| Oligonucleotide | 7-mer Z-score |
| --- | --- |
| AGCCUGU | -0.253 |
| CGUAGCU | -0.38 |
| UUGUUCG | -0.436 |
| ACGCAUU | -0.197 |
| UACGCCC | -0.389 |
| GAGUUUA | -0.36 |
| UACGCAA | -0.0337 |
| GUGAAAG | 0.162 |

Excerpt of the above (set 2):
| Substitution | normalised enrichment score |
| --- | --- |
| G2A | 7.54 |
| L7V | 0.891 |
| D11I | 8.27 |
| A9F | 8.74 |
| G2S | 8.19 |
| F8Y | 6.33 |
